Published values pooled from the literature.
Each line is one published result; not all experiments were run side by side. ± marks the error that the study gave.
SIRT1: NAD-dependent protein deacetylase sirtuin-1 (SIRT1, Homo sapiens, UniProt Q96EB6)
Sequence of UniProt Q96EB6 (whole entry, looked up): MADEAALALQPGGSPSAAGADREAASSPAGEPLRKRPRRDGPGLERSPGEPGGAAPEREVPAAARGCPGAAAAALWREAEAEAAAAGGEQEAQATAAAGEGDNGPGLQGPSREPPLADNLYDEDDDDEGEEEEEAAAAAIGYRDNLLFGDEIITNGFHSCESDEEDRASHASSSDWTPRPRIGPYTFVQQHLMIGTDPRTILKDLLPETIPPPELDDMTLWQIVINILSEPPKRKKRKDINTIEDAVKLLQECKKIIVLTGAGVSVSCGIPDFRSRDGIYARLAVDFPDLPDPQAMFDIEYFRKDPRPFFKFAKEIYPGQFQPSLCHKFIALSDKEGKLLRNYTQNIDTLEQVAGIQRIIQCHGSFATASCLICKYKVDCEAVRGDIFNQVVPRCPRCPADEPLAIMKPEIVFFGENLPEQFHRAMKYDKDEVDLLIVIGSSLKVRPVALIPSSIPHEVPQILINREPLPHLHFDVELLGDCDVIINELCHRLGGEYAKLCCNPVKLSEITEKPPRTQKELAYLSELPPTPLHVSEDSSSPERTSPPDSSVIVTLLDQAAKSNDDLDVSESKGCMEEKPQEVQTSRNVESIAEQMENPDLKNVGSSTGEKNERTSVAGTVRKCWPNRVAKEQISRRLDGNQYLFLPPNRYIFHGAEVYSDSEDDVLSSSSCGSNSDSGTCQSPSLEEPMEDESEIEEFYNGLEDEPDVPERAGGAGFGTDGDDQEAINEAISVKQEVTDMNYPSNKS
PPO3: PPO3 (Agaricus bisporus, UniProt C7FF04)
Sequence of UniProt C7FF04 (whole entry, looked up): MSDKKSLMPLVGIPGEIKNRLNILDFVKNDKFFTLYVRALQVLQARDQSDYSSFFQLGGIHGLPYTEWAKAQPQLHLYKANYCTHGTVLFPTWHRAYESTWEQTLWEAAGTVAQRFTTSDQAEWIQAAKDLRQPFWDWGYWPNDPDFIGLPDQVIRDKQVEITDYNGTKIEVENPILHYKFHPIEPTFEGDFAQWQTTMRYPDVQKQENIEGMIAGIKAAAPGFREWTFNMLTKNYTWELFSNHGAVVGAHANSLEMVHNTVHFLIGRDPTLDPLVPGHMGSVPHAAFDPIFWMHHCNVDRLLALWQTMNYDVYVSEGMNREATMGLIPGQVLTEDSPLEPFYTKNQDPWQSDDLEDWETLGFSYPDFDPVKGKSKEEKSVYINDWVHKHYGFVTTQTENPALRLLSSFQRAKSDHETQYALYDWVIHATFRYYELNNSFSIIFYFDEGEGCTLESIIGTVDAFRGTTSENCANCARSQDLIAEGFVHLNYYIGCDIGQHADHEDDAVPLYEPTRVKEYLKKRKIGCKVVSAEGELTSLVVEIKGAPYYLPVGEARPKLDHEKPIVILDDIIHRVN
Epha4 ectodomain: Ephrin type-A receptor 4, ectodomain (Epha4, Mus musculus, UniProt Q03137)
Sequence of UniProt Q03137 (whole entry, looked up): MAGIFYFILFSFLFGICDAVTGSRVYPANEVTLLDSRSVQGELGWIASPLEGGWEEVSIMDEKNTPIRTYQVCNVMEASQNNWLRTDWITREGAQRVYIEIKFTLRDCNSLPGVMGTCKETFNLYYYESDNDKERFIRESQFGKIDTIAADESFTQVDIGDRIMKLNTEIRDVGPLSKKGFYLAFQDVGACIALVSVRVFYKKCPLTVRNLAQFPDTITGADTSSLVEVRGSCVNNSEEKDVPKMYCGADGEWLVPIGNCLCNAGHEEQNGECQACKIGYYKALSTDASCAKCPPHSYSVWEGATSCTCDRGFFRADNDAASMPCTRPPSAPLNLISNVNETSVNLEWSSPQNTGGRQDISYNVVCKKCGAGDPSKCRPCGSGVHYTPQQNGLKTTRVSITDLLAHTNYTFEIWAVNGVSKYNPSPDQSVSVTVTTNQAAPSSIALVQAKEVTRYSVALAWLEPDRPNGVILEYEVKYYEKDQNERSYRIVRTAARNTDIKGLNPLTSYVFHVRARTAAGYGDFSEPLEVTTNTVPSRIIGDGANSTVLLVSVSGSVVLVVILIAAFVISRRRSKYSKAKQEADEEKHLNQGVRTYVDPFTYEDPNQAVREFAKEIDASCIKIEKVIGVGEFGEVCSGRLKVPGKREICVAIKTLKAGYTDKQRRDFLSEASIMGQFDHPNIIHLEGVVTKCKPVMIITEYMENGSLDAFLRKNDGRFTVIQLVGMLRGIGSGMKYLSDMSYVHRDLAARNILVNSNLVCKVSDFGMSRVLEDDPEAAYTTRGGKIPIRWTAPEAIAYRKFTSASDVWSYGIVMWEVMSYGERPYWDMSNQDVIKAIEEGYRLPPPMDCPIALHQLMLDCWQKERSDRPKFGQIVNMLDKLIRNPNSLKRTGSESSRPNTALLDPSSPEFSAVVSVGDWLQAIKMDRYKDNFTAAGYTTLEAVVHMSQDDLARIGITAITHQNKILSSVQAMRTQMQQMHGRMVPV
AKR1C1: Aldo-keto reductase family 1 member C1 (AKR1C1, Homo sapiens, UniProt Q04828)
Sequence of UniProt Q04828 (whole entry, looked up): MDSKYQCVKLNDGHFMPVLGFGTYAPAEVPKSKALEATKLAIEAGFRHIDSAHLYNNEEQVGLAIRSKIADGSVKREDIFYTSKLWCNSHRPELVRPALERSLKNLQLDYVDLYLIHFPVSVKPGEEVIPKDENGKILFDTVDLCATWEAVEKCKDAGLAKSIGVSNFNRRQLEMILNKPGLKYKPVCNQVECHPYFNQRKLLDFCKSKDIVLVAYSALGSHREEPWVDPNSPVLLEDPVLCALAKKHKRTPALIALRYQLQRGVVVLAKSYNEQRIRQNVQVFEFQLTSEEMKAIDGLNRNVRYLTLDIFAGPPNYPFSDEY
CLK4: Dual specificity protein kinase CLK4 (CLK4, Homo sapiens, UniProt Q9HAZ1)
Sequence of UniProt Q9HAZ1 (whole entry, looked up): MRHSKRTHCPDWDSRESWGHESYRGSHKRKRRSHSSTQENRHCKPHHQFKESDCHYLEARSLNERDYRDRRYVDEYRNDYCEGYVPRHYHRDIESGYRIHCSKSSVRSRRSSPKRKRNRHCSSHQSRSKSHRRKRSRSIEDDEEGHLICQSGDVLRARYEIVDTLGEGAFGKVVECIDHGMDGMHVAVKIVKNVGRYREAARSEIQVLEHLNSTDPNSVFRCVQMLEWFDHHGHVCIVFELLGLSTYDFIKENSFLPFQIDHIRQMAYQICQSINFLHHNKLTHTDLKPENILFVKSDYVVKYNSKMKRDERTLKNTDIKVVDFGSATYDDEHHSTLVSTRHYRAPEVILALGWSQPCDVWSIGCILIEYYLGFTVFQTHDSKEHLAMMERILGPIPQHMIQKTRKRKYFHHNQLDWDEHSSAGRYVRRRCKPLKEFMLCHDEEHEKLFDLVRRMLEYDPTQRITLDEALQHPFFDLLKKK
IDO1: Indoleamine 2,3-dioxygenase 1 (IDO1, Homo sapiens, UniProt P14902)
Sequence of UniProt P14902 (whole entry, looked up): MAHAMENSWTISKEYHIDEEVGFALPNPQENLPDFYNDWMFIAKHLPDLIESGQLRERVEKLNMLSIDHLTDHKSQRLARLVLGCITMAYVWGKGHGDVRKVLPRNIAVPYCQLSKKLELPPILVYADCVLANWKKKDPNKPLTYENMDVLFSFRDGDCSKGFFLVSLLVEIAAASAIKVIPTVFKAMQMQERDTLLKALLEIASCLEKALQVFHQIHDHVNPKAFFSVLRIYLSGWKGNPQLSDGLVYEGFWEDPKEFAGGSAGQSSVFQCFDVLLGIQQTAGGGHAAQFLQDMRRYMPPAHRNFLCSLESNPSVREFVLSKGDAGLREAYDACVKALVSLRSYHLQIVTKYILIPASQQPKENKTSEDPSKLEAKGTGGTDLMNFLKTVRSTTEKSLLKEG
Sequence of UniProt Q06609 (whole entry, looked up): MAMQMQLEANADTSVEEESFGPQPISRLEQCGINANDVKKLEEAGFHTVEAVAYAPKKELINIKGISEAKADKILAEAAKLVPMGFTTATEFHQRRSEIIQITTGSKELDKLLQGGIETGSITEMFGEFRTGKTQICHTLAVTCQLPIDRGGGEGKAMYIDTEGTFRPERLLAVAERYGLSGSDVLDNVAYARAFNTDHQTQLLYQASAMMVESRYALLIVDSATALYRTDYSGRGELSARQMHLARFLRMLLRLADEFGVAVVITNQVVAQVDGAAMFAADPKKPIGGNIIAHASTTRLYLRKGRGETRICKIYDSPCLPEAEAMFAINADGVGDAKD
Sequence of UniProt Q9UL51 (whole entry, looked up): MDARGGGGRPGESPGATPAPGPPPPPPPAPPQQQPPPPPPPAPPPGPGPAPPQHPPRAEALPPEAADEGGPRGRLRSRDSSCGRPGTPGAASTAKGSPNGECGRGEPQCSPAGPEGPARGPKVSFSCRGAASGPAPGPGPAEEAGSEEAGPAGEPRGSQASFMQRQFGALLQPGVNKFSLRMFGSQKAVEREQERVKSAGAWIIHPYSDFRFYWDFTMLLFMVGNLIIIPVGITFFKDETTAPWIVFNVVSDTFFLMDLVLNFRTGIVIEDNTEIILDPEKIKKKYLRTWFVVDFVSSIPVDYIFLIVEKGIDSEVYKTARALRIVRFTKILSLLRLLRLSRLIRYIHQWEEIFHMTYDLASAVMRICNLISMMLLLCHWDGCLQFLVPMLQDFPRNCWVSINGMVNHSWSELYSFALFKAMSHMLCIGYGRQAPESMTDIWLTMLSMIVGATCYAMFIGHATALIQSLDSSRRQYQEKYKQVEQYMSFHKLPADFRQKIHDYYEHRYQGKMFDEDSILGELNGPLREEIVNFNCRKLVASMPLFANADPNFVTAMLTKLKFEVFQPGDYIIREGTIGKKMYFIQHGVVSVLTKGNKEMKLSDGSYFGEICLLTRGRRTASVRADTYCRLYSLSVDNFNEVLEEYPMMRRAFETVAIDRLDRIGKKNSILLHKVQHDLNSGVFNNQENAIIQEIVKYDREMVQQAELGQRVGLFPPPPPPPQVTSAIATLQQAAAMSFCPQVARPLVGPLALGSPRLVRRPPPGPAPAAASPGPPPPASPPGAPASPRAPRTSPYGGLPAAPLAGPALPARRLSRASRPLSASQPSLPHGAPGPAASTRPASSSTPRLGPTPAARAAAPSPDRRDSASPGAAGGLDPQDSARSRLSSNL

`O=C(O)CN1C(=O)/C(=C/c2c[nH]nc2-c2cc(F)cc(F)c2)SC1=S` gave an inhibition of < 30% (SIRT1; enzyme activity, inhibitor, fluorescence; 10 µM).
`CC1=CC(=O)C(C2CCCCC2)=C/C1=N\OS(=O)(=O)c1ccccc1` has an inhibition of ~50% (PPO3; enzyme activity, inhibitor, absorbance; 20 µM).
`COc1ccc(N2C(=O)CSC2c2cccc(Br)c2)c(OC)c1` (stereo not shown): inhibition “no inhibition” (act2/arp2 (Schizosaccharomyces pombe, UniProt P32390+Q9UUJ1); actin polymerization, pyrenyl-actin; concentration not given).
`CC(C)Oc1cc(NC(=O)[C@H](Cc2ccccc2)NC(=O)c2ccc(N)c(OCc3ccccc3)c2)ccc1C(=O)NCC(=O)O`: inhibition “no inhibition” (Histone acetyltransferase p300, with HIF-1α (EP300, Homo sapiens, UniProt Q09472); fluorescence anisotropy competition; concentration not given).
`NCCC(=O)N[C@@H](Cc1c[nH]c2ccccc12)C(=O)N[C@@H](Cc1ccc(Cl)cc1)C(=O)N[C@@H](Cc1ccc(F)cc1)C(N)=O` gave an inhibition of 40% (Epha4 ectodomain; ephrin-A5 binding, antagonist, ELISA; 500 µM, with: ephrin-A5-AP).
With `CSCC[C@@H]1NC(=O)[C@H]([C@@H](C)O)NC(=O)[C@H](CCCNC(=N)N)NC(=O)CNC(=O)CC[C@@H](C(=O)N[C@@H](C)C(=O)N[C@@H](CCCNC(=N)N)C(=O)N[C@@H](CCCCN)C(=O)N[C@@H](CO)C(=O)N[C@H](C(=O)NCC(=O)NCC(N)=O)[C@@H](C)O)NC(=O)[C@H](CCC(N)=O)NC1=O` the inhibition was ~55% (Histone-lysine N-methyltransferase SETD7 (SETD7, Homo sapiens, UniProt Q8WTS6); enzyme activity, inhibitor, MALDI-TOF MS; 50 µM, 10 min preincubation, 30 min, pH 8, 37 °C, enzyme 500 nM, with: H3 1-21 peptide, SAM 30 µM).
`C[C@]12CCC[C@H]1[C@@H]1CCc3c(cc(Cl)c(O)c3Cl)[C@H]1CC2` gave an inhibition of 39.4% (AKR1C1; enzyme activity, inhibitor, absorbance; 10 µM, pH 9).
With `CC(=O)c1cnc(N)nc1N1CC[C@H]1c1nn2ccc(Cl)c2c(=O)n1-c1ccccc1` the inhibition was < 10% (Potassium/sodium hyperpolarization-activated cyclic nucleotide-gated channel 2 (HCN2, Homo sapiens, UniProt Q9UL51); ion current, inhibitor; 3 µM).
With `C[C@]12CC[C@@H]3c4cc(Br)c(O)cc4CC[C@H]3[C@@H]1CCC2=O` the inhibition was 51.2% (AKR1C1; enzyme activity, inhibitor, absorbance; 10 µM, pH 9).
With `COc1cc(C2CC(c3ccc(C)cc3)=Nc3ccccc3S2)ccc1OCc1ccccc1` (stereo not shown) the inhibition was 28% (PPO3; enzyme activity, inhibitor; 25 µg/mL).
`C[C@@]12CC[C@@H]3c4ccc(O)cc4CC[C@H]3[C@@H]1CCC2=O` gave an inhibition of 7.5% (AKR1C1; enzyme activity, inhibitor, absorbance; 10 µM, pH 9).
For `C[C@@H](N)C1CCN(S(=O)(=O)c2cccc3cnccc23)CC1`, the inhibition was > 95% (CLK4; cell-free assay, competition with immobilised ligand; 10 µM).
`Clc1ccc(NN=C(c2ccccc2)c2ccccn2)nc1`: inhibition “inhibited” (Lysine-specific demethylase 4E (KDM4E, Homo sapiens, UniProt B2RXH2); demethylase activity, inhibitor, coupled formaldehyde dehydrogenase; 10 µM, with: H3K9me3 peptide).
The inhibition of `C[C@]12CC[C@@H]3c4cc(Br)c(O)c(Br)c4CC[C@H]3[C@@H]1CCC2=O` is reported as 82.5% (AKR1C1; enzyme activity, inhibitor, absorbance; 100 µM, pH 9).
With `COc1ccc2[nH]cc(C[C@H](NC(=O)CCN)C(=O)N[C@@H](Cc3ccc(Cl)cc3)C(=O)N[C@@H](Cc3ccncc3)C(N)=O)c2c1` the inhibition was ~90% (Epha4 ectodomain; ephrin-A5 binding, antagonist, ELISA; 500 µM, with: ephrin-A5-AP).
Under inhibition, `CC(C)c1nnc(-c2cccc(Nc3ncnn4ccc(CN5CCC(N)CC5)c34)c2)s1` is recorded as “inhibited” (kinase panel; enzyme activity, inhibitor; concentration not given, seven off-target kinases besides AAK1).
The inhibition of `C[C@@]12CC[C@@H]3c4ccc(O)c(I)c4CC[C@H]3[C@@H]1CCC2=O` is reported as 22.5% (AKR1C1; enzyme activity, inhibitor, absorbance; 100 µM, pH 9).
For `C=CC(=O)Nc1cccc(-c2cnc3[nH]cc(C(=O)NC(C)(C)C)c3n2)c1`, the inhibition was > 90% (CLK4; enzyme activity, inhibitor; 0.1 µM).
The inhibition of `CNCCNC(=O)CN1C(=O)Cc2c([nH]c3ccc(Br)cc23)-c2ccc(Cl)cc21` is reported as 20% (Glutathionylspermidine synthase (Crithidia fasciculata, UniProt P90518); enzyme activity, inhibitor; 300 µM).
`Cc1ccc(C2=Nc3ccccc3SC(c3ccc(C(=O)O)cc3)C2)cc1` (stereo not shown) has an inhibition of 32% (PPO3; enzyme activity, inhibitor; 25 µg/mL).
The inhibition of `COc1cc2ncc3c(c2cc1-c1cnn(C)c1)n(-c1ccc(C#N)cc1F)c(=O)n3C` is reported as > 50% (FMS kinase (CSF1R) Y969C; enzyme activity, inhibitor; 1 µM).
For `Cc1cc(C)nc(SCC(=O)Nc2ncc(Cc3cccc4ccccc34)s2)n1`, the inhibition was 37% (SIRT1; enzyme activity, inhibitor; 10 µM).
For `C/C=C/c1cc(=O)c2c(C)cc(OC)c([C@@H]3O[C@H](CO)[C@@H](O)[C@H](O)[C@H]3O)c2o1`, the inhibition was 28.8 ± 1.25% (IDO1; kynurenine formation; 100 µM).
Under inhibition, `CCCC[C@H](NC(C)=O)C(=O)N1CCC[C@H]1C(=O)N[C@@H](CO)C(=O)N[C@@H](CO)C(=O)N[C@@H](C)C(=O)N[C@@H](CO)C(=O)N[C@@H](CCCNC(=N)N)C(=O)N[C@@H](CCC(N)=O)C(=O)N[C@@H](CC(C)C)C(=O)N[C@]1(C)CCCCCCC=CCCC[C@@](C)(C(=O)N[C@@H](CCC(N)=O)C(N)=O)NC(=O)[C@H](CCC(=O)O)NC(=O)[C@H](CCCCN)NC(=O)[C@H](CC(C)C)NC(=O)[C@H](CCC(N)=O)NC(=O)[C@H](CCCCN)NC(=O)[C@H](CCCNC(=N)N)NC1=O` is recorded as “inactive” (Ubiquitin-like modifier-activating enzyme 1 (UBA1, Homo sapiens, UniProt P22314); ubiquitin thioester transfer to UBE2D2, inhibitor; concentration not given, staple-scanning screen).
`COc1ccc2c(c1)CC[C@@H]1[C@@H]2CC[C@@]2(C)C(=O)CC[C@@H]12` has an inhibition of 1.3% (AKR1C1; enzyme activity, inhibitor, absorbance; 10 µM, pH 9).
With `COc1cc(OC)c2c(=O)[nH]c(-c3ccc(C4CCCNC4)cc3)nc2c1` (stereo not shown) the inhibition was 65% (Bromodomain-containing protein 4, BD1 and BD2 (BRD4, Homo sapiens, UniProt O60885); TR-FRET; 10 µM).
For `O=C1c2c(O)cccc2[C@H]([C@@H]2O[C@H](CO)[C@@H](O)[C@H](O)[C@H]2O)c2cc(CO)cc(O)c21`, the inhibition was 66.59 ± 0.51% (IDO1; kynurenine formation; 100 µM).
With `CC(C)C[C@H](NC(=O)c1ccc2c(c1)nc(-c1c(F)cccc1Cl)n2C1CCCCC1)C(=O)O` the inhibition was < 30% (SIRT1; enzyme activity, inhibitor, fluorescence; 10 µM).
`CC(C)Oc1ccc(B(O)O)c(F)n1` has an inhibition of ≤ 20% (Proteasome Macropain subunit PRE2 (PRE2, Saccharomyces cerevisiae S288c, UniProt P30656); 20S proteasome activity; 100 µM, with: Suc-LLVY-AMC).
`COc1cc(C(=O)NC2CCC(N3CCN(CC4CCC5(CCCC5)C4)CC3)CC2)c(F)cc1Nc1ncc2c(n1)N(C1CCCC1(F)F)CC(F)(F)C(=O)N2C` (stereo not shown) gave an inhibition of 0.93% (Ephrin type-B receptor 1 (EPHB1, Homo sapiens, UniProt P54762); cell-free assay, TR-FRET; 10 µM).
`CC(=O)Nc1cc(COc2c(Cl)cc(CC(N)C(=O)O)cc2Cl)c2oc(-c3ccccc3)nc2c1` (stereo not shown) — result for inhibition: “no inhibition” (SLC38A2 (Homo sapiens, UniProt Q96QD8); L-alanine uptake; Xenopus oocytes; 1 and 10 µM, 30 min, with: L-[14C]alanine 50 µM).
For `COc1cc2c(cc1I)[C@H]1CC[C@@]3(C)C(=O)CC[C@H]3[C@@H]1CC2`, the inhibition was 1% (AKR1C1; enzyme activity, inhibitor, absorbance; 10 µM, pH 9).
For `OB1OCc2ccc(-n3cc(Sc4cccc(Cl)c4)c4ccccc43)cc21`, the inhibition was > 50% (Leucine--tRNA ligase, cytoplasmic (LARS1, Homo sapiens, UniProt Q9P2J5); aminoacylation, inhibitor; 100 µM).
The inhibition of `Cn1nc(-c2ccc(Cl)cc2)c2cc(C(=O)NCCCN3CCCCCC3)sc21` is reported as > 2 fold (DNA repair protein RAD51 homolog 1 (RAD51, Homo sapiens, UniProt Q06609); D-loop formation; 10 x IC50, with: Ca2+ 1 mM; baseline: DMSO).
For `C[N+](C)(CC(=O)Nc1cccc(C(F)(F)F)c1)CC(=O)Nc1cccc(C(F)(F)F)c1`, inhibition read “inhibited” (Transient receptor potential cation channel subfamily V member 4 (TRPV4, Homo sapiens, UniProt Q9HBA0); calcium influx, antagonist; Huh-7; 1 µM, with: GSK1016790A 10 nM).
Under inhibition, `N=C(N)SCc1ccc(CSC(=N)N)cc1` is recorded as “inactive” (IDO1; enzyme activity, inhibitor, biochemical; concentration not given).
`C[C@@H]1C[C@@H](O)Cc2cc(O)cc(O)c21` gave an inhibition of 11.2 ± 0.35% (IDO1; kynurenine formation; 100 µM).
The inhibition of `C[C@]12CC[C@@H]3c4cc(I)c(O)c(I)c4CC[C@H]3[C@@H]1CCC2=O` is reported as 42.2% (AKR1C1; enzyme activity, inhibitor, absorbance; 10 µM, pH 9).
For `Cc1cc2c(NC(=O)N[C@@H]3CC(C)(C)Oc4c(OC(F)(F)F)cccc43)cccc2cn1`, the inhibition was 35.4 ± 2.1% (Transient receptor potential cation channel subfamily V member 1 (TRPV1, Homo sapiens, UniProt Q8NER1); acid-evoked calcium influx, antagonist; HEK293, human; 11.25 µM, pH 5).
The inhibition of `Oc1c(C(Nc2nc3ccccc3s2)c2cccc(OCc3ccccc3)c2)ccc2cccnc12` (stereo not shown) is reported as 84.6% (Genome polyprotein, protease (Dengue virus type 2, UniProt P14340); enzyme activity, inhibitor, fluorescence; 10 µM).
The inhibition of `O=C(O[C@H](CO)C(F)(F)F)N1C[C@@H]2[C@H](C1)[C@H]2c1ccn(-c2ccc(F)nc2)n1` is reported as > 50% (Sodium-dependent noradrenaline transporter (SLC6A2, Homo sapiens, UniProt P23975); 10 µM).
`CCCCCCCC/C=C\CCCCCCCC(=O)SCCNC(=O)CCNC(=O)[C@H](O)C(C)(C)COP(=O)(O)OP(=O)(O)OC[C@H]1O[C@@H](n2cnc3c(N)ncnc32)[C@H](O)[C@@H]1OP(=O)(O)O` has an inhibition of 70 ± 7% (Potassium channel subfamily K member 5 (KCNK5, Homo sapiens, UniProt O95279); ion current, inhibitor, inside-out patch clamp; Xenopus oocytes; 10 µM).
`Cc1ccc(C2=Nc3ccccc3SC(c3cccc([N+](=O)[O-])c3)C2)cc1` (stereo not shown) has an inhibition of 13% (PPO3; enzyme activity, inhibitor; 25 µg/mL).

Repeated from above:
With `COc1cc(OC)c2c(=O)[nH]c(-c3ccc(C4CCCNC4)cc3)nc2c1` (stereo not shown) the inhibition was 65% (Bromodomain-containing protein 4, BD1 and BD2 (BRD4, Homo sapiens, UniProt O60885); TR-FRET; 10 µM).
For `O=C1c2c(O)cccc2[C@H]([C@@H]2O[C@H](CO)[C@@H](O)[C@H](O)[C@H]2O)c2cc(CO)cc(O)c21`, the inhibition was 66.59 ± 0.51% (IDO1; kynurenine formation; 100 µM).
With `CC(C)C[C@H](NC(=O)c1ccc2c(c1)nc(-c1c(F)cccc1Cl)n2C1CCCCC1)C(=O)O` the inhibition was < 30% (SIRT1; enzyme activity, inhibitor, fluorescence; 10 µM).
`CC(C)Oc1ccc(B(O)O)c(F)n1` has an inhibition of ≤ 20% (Proteasome Macropain subunit PRE2 (PRE2, Saccharomyces cerevisiae S288c, UniProt P30656); 20S proteasome activity; 100 µM, with: Suc-LLVY-AMC).
`COc1cc(C(=O)NC2CCC(N3CCN(CC4CCC5(CCCC5)C4)CC3)CC2)c(F)cc1Nc1ncc2c(n1)N(C1CCCC1(F)F)CC(F)(F)C(=O)N2C` (stereo not shown) gave an inhibition of 0.93% (Ephrin type-B receptor 1 (EPHB1, Homo sapiens, UniProt P54762); cell-free assay, TR-FRET; 10 µM).
`CC(=O)Nc1cc(COc2c(Cl)cc(CC(N)C(=O)O)cc2Cl)c2oc(-c3ccccc3)nc2c1` (stereo not shown) — result for inhibition: “no inhibition” (SLC38A2 (Homo sapiens, UniProt Q96QD8); L-alanine uptake; Xenopus oocytes; 1 and 10 µM, 30 min, with: L-[14C]alanine 50 µM).
For `COc1cc2c(cc1I)[C@H]1CC[C@@]3(C)C(=O)CC[C@H]3[C@@H]1CC2`, the inhibition was 1% (AKR1C1; enzyme activity, inhibitor, absorbance; 10 µM, pH 9).
